# Assay results pooled from the literature.
# Every numbered part comes from another study and shows a few of its results, in no order. Changes are numbered by the printed parent chain.

# Block 1
# Target: Interferon regulatory factor 5, full length, phosphomimetic (IRF5, Homo sapiens, UniProt Q13568-2, residues 1-514, K96S/S451D/S453D/S456D/S462D)
# Method: protein-binding microarray
# Form: double-stranded DNA, one strand shown
# Medium: in vitro
# Concentration: 250 nM
# Notes: 60-bp whole probe
# With: salmon DNA 0.4 mg/ml
# Baseline: random background probes
# Reading: higher = stronger binding
# Shared flanks, not repeated: GCCTAGCAC … GTCTTGATTCGCTTGACGCTGCTG
Oligonucleotide,log fluorescence
GTGGCAGGCCCTCGGGCTCCGTGCTAG,-1.14 z-score
TCCCCTCTAGGTTCTCTGAAGGTGCTA,-0.366 z-score
TCATACATCTCTCTTAAACTGTGCTAG,0.398 z-score
AGTAATGACCTTCTCAGGAGGTGCTAG,-0.235 z-score
GACCGTTCCCTTTTCCTGACGTGCTAG,0.233 z-score
TTTTCACTTTCTTTAACTCAGTGCTAG,5.95 z-score
TTAGGTTTCGGGACTGGATTAGTGCTA,6.36 z-score
TCATTTATGCTTTCTTTAACTGTGCTA,1.84 z-score
TTCGGTATCGGTTTCGGTTAGTGCTAG,11.3 z-score
GACGGTATCGGGACTGGGCACGTGCTA,1.26 z-score
GACGGTCTCGGTATCCGGACGTGCTAG,0.352 z-score
GACCATTTCGGGACTGGAGACGTGCTA,1.24 z-score
TTAGGTTTAGGGTTTCGGTTAGTGCTA,6.05 z-score
GACGGTCTCGGTTGCGGGACGTGCTAG,0.292 z-score
TCAGGAGTCATTCTCAAACTGTGCTAG,-0.254 z-score
TTGGATATCGGGTATCGATTAGTGCTA,5.01 z-score
TTAGATATCAGTCTCTATTAGTGCTAG,1.57 z-score
CAGAAAATAGAAACTCGTGTTGTGCTA,1.82 z-score
TTAGAACTGGGGTTTCGATCAGTGCTA,5.1 z-score

# Block 2
# Target: Sal-like protein 4, full length isoform B (SALL4, Homo sapiens, UniProt Q9UJQ4-2, residues 1-616)
# Method: universal PBM
# Form: double-stranded DNA, one strand shown
# Medium: in vitro
# Concentration: not given
# Notes: 8-mer, flanks averaged, mean of replicates
# Reading: higher = stronger binding
Oligonucleotide,E-score
CATAGCGA,0.0189
CGCGGCAG,-0.397
CCAAGTAC,-0.0307
CAAATCTC,-0.0472
CACCGAGA,-0.267
ACCCTTTG,-0.116
AATGGAAT,0.124
ACGTCGCC,-0.201
CAGGCCCC,-0.443
TGAAAACA,0.247
CAATAGAC,0.149
AAGATCCC,-0.0908
AACATCGT,-0.0465
AGCTAAGA,-0.0673
GCCGTACC,-0.255
AAAAATGG,0.259
AGTAGAGC,-0.0604
CACCCGCC,-0.21
ACTCTAGG,-0.174
ATTTACTG,0.242
GACGGCGA,-0.22
ATTGCAAG,0.158
CCTTTAAA,0.0365

# Block 3
# Target: CCNE2, cyclin fold, Cln2 fusion (human)
# Method: yeast growth competition, sequencing
# Medium: yeast
# Notes: weak parent motif
# Baseline: not given
# Reading: higher = stronger binding
# Parent: ITGB3BP docking peptide (human); MPVKRSLKLDGLL
Variant,normalised enrichment score
L9A,0.35
L7A,0.773
D10A,1.25
R5A L7A,0.378
G11A,1.23
S6A,0.324
K4A,0.568
R5K,0.253
R5K L9F,0.598
V3A,0.937

# Block 4
# Target: ATF2, bZIP domain (human)
# Method: DHFR protein complementation
# Medium: yeast
# Notes: single substitutions, most at no-binding floor
# Baseline: wild-type JUN-FOS pair
# Reading: higher = stronger binding
# Parent: JUN, bZIP domain (human); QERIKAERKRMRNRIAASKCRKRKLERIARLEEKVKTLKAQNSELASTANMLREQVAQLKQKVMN; partner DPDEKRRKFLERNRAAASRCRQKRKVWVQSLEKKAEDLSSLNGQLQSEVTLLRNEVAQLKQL
Variant,binding fitness
L38N,-1.44 natural log
V35R,-1.49 natural log
Q55W,-1.52 natural log
E33S,-1.34 natural log
K36T,-1.43 natural log
I28L,-1.26 natural log
Q55F,-1.57 natural log
V56K,-1.51 natural log
I28R,-1.34 natural log
A46L,-1.32 natural log
L31G,-1.46 natural log
L59H,-1.52 natural log
S47G,-1.36 natural log
I28P,-1.46 natural log
M51D,-1.41 natural log
A29Q,-1.22 natural log
S47E,-1.17 natural log
L38Q,-1.49 natural log
K39T,-1.4 natural log
V35D,-1.51 natural log
T48F,-1.46 natural log
L31Y,-1.42 natural log
S43N,-1.42 natural log
R53F,-1.6 natural log
S43E,-1.36 natural log

# Repeated from above (block 2):
Oligonucleotide,E-score
CGCGGCAG,-0.397
CCAAGTAC,-0.0307
CAAATCTC,-0.0472
CACCGAGA,-0.267
ACCCTTTG,-0.116
AATGGAAT,0.124
ACGTCGCC,-0.201
CAGGCCCC,-0.443
TGAAAACA,0.247
CAATAGAC,0.149
